Experimental data gathered from unrelated publications.
Every numbered part comes from another study and shows a few of its results, in no order. Changes are numbered by the printed parent chain.

Block 1 — technique: protein binding microarray; molecule type: double-stranded DNA, one strand shown; medium: in vitro; tested at: not given; relative to: not given; direction: higher = stronger binding
Target: Histone acetyltransferase KAT6A, both winged helices, GST fusion (KAT6A, Homo sapiens, UniProt Q92794, residues 1-181)
Notes: 8-mer, flanks averaged, mean of 2 arrays, mostly near background
Residues (chain): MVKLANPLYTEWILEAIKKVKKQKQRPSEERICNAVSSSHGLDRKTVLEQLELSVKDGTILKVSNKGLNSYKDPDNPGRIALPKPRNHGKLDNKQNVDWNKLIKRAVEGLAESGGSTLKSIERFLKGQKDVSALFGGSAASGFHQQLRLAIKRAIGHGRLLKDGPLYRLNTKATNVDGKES
Oligonucleotide | E-score
AATAAGAG | -0.191
CCCACACC | -0.125
ATGTTAGG | -0.141
ACTGCGTA | 0.151
ATCCATGC | -0.0557
CCGAATAC | 0.171
ATCACCCA | -0.157
ATTACCTC | -0.155
CAGAGCGA | 0.0122
GCTTTCAA | 0.0842
AGTGAGCG | 0.0407
CGGTACGC | 0.296
CTTACCGA | 0.0438
AACGCCCG | 0.182
GTAGTGGA | -0.0665
ATTGCTCC | -0.0718
TAATCCAA | -0.218
CGGGCCTC | 0.188
CGCTCTAA | 0.0963
ACGGACCA | 0.217
CGTTAAGC | 0.136
GATCCCGC | 0.187
ATGTCCAC | -0.106
CAAGCTCG | -0.132

Block 2 — technique: RNA Bind-n-Seq; molecule type: RNA; medium: in vitro; tested at: not given; relative to: input RNA pool; direction: higher = stronger binding
Target: RING finger protein unkempt homolog, zinc fingers 1-6, GST-SBP tag (UNK, Homo sapiens, UniProt Q9C0B0, residues 30-357)
UniProt Q9C0B0, sequence (30-357, looked up): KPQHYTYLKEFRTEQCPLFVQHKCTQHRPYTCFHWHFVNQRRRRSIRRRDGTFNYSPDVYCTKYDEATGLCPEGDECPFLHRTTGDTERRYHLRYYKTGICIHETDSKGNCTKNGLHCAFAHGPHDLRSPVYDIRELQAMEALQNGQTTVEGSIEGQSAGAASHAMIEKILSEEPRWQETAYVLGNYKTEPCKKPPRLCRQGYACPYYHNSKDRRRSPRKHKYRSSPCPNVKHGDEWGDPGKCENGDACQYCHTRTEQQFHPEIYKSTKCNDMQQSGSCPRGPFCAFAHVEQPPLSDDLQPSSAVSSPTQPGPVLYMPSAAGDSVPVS
Notes: RNA with constant flanks, human and mouse sites, ends assumed
Oligonucleotide | bound/input enrichment [ratio]
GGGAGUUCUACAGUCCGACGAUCUGUCCAGGUUGCUACAAGAUUACUACAGUUUUCAGCCAUGCACAGACUGUGGUUCUUUGUGUGGGUUGUUCAACUGUGUUGUGCCAGCCCACAGGAGGAAAAGCCAGGCUCACAGAAGGCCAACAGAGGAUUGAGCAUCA | 0.104
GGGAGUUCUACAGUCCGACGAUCCAAAACACAAAAGCUCUUAUUUUGAAAAGUGAACAUAUAAGGCUAGAAAAAGAAAUUUCUAAGUUAAAGCAGCAAAAUGAACAGCUAAUAAAACAAAAGAAUGAAUUGUUAAGCAAUAAUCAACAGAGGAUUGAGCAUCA | 0.47
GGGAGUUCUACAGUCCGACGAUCGUCUCGGCGACCUGGAGCGGCCGCGCUUGCGGAGCCGUCACCAUGCCCCUGGCUAGAGAUCUGUUACACCCUUCCUUGGAGGAGGAGAAGAAAAAACAUAAGAAGAAACGGCUGGUUCAGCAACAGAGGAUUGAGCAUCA | 0.342
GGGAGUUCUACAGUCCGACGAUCGCAGGAGACUGCGUUGCCCUGCUGCAGUCGUGUGAGCCUGCACUCGAUGCUGCCUUUGUGACUAGCCUGUCUUAGGCGGCAGCAUUGAAGUGGCUACCGGCUUCCCCAGACCUCUCUUCACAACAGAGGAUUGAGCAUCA | 0.0585
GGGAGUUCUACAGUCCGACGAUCUCUUUUUUUUAAAGUUAUCAAAUCUUCAUUUUCUAAGAGUAGCCCUUUAUAGUGUACAAAAUGAUAUUAAGUGCAUUAUUAUCUUCGCUUUUCAUGGCUCUGAGUCAUAAAACAAGCUGGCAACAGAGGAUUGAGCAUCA | 0.438
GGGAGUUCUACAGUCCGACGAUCGAACCUGAGCCAGCGGAAGAAUACACAGAGCAAAGUGAGGUUGAAUCAACAGAGUAUGUCAAUAGGCAGUUCAUGGCAGAAACACAGUUCAGCAGUGGUGAGAAGGAGCAAGUGGAUGAGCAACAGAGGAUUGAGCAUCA | 0.442
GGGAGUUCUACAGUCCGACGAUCAAAACCCAGCAGAAUGUAAUUCAGUAUUUGUUUAUUGGCUGUUUUUUGACAGAUUGUUGAAAUUAAAUGAAUUGAAAGGGAAACUCAGAGUACUAGGACGUUUAUUAAAAGGAAAAAAAUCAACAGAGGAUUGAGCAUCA | 1.55
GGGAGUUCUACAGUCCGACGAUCUCCUGUCUCGAUUUACUCGAAAUGAGUUUAAUCUGGAAAGCAAGAGCACCAUUGGAGUAGAGUUUGCAACAAGAAGCAUCCAGGUUGAUGGAAAAACAAUAAAGGCACAGAUAUGGGACACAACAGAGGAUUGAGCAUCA | 0.512
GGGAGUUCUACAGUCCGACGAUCAACAAGCCCUGCCCAGUGUGCAGACAGCCAAUCCAAAUGAUUGUGCUAACUUACUUCAACUAGCUGACCUGCUCACAAAAAUAGAAUUUUAUAUUUCUAACUAUAUGACCCCCAAAUUAGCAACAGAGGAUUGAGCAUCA | 50.8
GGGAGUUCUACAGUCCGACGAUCGACUUGGUACACUUUGAUUUUAUGGACCCACCAGCUCCUGAAACUCUGAUGAGAGCCCUAGAACUUUUGAAUUAUUUGGCUGCUUUAAAUGAUGAUGGAGAUCUGACUGAAUUGGGAUCCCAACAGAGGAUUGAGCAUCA | 21.2
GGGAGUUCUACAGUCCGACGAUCCUCUUCCUCCCCACCCUGAAAAAAAUGAGUUCCUAUUUUUUCUGGGAGAGGGGGGGAUUGAUUAGAAAAAAAUGUAGUGUGUUCCAUUUAAAAUUUUGGCAUAUGGCAUUUUCUAACUUACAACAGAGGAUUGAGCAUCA | 0.243

Block 3 — technique: DHFR PCA, deep sequencing; medium: yeast; with: (+)-ABA 2500 µM; relative to: wild-type fitted maximum; direction: higher = stronger binding
Target: ABI1, truncated, D143A, DHFR fusion (Arabidopsis thaliana)
Notes: methotrexate growth selection, single substitutions
Starting sequence: PYL1, truncated, DHFR fusion (Arabidopsis thaliana); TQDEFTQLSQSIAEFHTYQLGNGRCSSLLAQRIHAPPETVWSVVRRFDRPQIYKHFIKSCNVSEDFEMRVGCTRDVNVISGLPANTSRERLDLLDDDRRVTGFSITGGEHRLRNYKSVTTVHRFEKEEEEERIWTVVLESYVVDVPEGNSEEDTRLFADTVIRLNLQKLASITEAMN
Substitution | relative binding score
T173D | 45.3%
C60E | 36.4%
D96M | 81.8%
S171V | 95.9%
V76S | 77%
F47L | 4.47%
G71F | 74.2%
H110P | 38.8%
R123E | 109%

Block 4 — target: CCNA1, cyclin fold, Cln2 fusion (human); technique: yeast growth competition, sequencing; medium: yeast; notes: weak parent motif; relative to: not given; direction: higher = stronger binding
Starting sequence: DOT1L docking peptide (human); SEAKRRIVFTITT; partner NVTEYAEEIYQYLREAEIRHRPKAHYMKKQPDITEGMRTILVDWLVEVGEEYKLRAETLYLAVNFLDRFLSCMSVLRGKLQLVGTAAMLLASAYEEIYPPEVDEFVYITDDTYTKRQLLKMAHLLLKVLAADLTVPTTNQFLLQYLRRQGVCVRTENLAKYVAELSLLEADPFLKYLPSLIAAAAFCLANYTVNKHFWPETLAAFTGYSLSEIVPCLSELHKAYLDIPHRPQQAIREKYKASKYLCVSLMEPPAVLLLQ
Substitution | normalised enrichment score
SAAKRRIVFTITT [E2A] | 0.476
SEAKRRIVFTIAT [T12A] | 0.126
SEAKRRIVFTATT [I11A] | 0.092
SEAKRRIVATITT [F9A] | 0.142
SEAKRRIVFTITA [T13A] | 0.112
SEAKRAIVFTITT [R6A] | -0.0683

Block 5 — technique: protein-binding microarray; molecule type: double-stranded DNA, one strand shown; medium: in vitro; tested at: 940 nM top; notes: 60-bp whole probe; with: salmon DNA 0.4 mg/ml; relative to: random background probes; direction: higher = stronger binding; constant ends, left off below: GCCTAGCAC … GTCTTGATTCGCTTGACGCTGCTG
Target: Interferon regulatory factor 5, full length, phosphomimetic (IRF5, Homo sapiens, UniProt Q13568-2, residues 1-514, S451D/S453D/S456D/S462D)
Oligonucleotide | fitted relative affinity
GACGGACTGTGTATCGGGACGTGCTAG | -0.149 z-score
GACGGTATCCTAGTGCTGACGTGCTAG | -0.547 z-score
TCACATTGAGATTTTCATACTGTGCTA | 0.352 z-score
GGGAGATGACTAAGAGGGGTGTGCTAG | -0.311 z-score
TTAGGTTTCAGTTCCGATTAGTGCTAG | 7.39 z-score
CTTTCTTTAACATATTCTCTTGTGCTA | 1.93 z-score
TCATTTTTTTTTTACTTACTGTGCTAG | 1.76 z-score
TTAGGTTTCGACTTCCGGTTAGTGCTA | 9.32 z-score
TTAGGTTCCGGTTCCGGTTAGTGCTAG | 4.57 z-score
TTAGGTCTCCTTCTCCGTTAGTGCTAG | 0.749 z-score
TTTGCTTTCTTTATGTACTCGTGCTAG | 2.17 z-score
TTAGGATTGCTACTGCTTTAGTGCTAG | -0.54 z-score
GACGGTCTCGGTTTCGGAACGTGCTAG | 7.13 z-score
GACGGTTTCGGGGTTCGGGACGTGCTA | 7.12 z-score
GACGGTATCGGGCCTGGGGACGTGCTA | 2.53 z-score
TTAGGTATCCTTATGCTTTAGTGCTAG | 0.147 z-score
GACGATTTCAGTATCAAGACGTGCTAG | 1.12 z-score
TCACATATAATTTTGTCACTGTGCTAG | 0.361 z-score

Single results of other studies
Substance | target | assay | system | conditions | how to read | endpoint | value
PhoQ, residues 284 288 289 292 302 303 SLANKL | PhoP, residues 12 14 15 18 19 LQHIR (Escherichia coli, UniProt P23836) | Sort-seq, measured: YFP reporter | E. coli | PhoQ-PhoP variant library, with: 10 µM Mg2+ | relative to: high Mg2+ state, higher = stronger signaling | fold induction | 7.71
